Measured values collected from several papers.
Lines come from different studies, so protocols differ. Several values in a cell are separate wells, animals, samples, runs or records.
DRD4: D(4) dopamine receptor (DRD4, Homo sapiens, UniProt P21917)
Chain of UniProt P21917 (whole entry, looked up): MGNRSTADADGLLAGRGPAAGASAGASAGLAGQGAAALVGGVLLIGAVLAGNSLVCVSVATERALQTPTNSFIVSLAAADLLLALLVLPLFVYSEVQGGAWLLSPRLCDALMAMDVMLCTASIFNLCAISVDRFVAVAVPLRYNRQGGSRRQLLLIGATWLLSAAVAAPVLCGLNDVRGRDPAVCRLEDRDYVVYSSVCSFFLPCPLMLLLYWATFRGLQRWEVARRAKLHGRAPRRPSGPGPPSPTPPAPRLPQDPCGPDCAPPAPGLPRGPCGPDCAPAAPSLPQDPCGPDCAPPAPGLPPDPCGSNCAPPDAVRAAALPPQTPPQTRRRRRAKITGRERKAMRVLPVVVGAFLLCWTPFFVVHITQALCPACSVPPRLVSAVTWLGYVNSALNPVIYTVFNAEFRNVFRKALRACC
Chain of UniProt P35348 (whole entry, looked up): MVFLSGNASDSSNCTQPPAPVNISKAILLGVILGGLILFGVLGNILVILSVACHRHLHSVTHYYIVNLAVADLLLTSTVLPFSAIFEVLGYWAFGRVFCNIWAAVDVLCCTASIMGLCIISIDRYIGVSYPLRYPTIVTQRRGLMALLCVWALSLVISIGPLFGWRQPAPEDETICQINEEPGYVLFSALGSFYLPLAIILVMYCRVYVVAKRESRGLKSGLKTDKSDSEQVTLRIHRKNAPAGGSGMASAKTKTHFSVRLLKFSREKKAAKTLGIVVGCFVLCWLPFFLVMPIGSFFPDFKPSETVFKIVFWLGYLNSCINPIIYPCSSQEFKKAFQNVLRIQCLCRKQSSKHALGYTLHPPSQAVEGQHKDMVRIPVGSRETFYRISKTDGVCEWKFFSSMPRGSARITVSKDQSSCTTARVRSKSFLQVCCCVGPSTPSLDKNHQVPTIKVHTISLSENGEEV
Chain of UniProt Q13523 (whole entry, looked up): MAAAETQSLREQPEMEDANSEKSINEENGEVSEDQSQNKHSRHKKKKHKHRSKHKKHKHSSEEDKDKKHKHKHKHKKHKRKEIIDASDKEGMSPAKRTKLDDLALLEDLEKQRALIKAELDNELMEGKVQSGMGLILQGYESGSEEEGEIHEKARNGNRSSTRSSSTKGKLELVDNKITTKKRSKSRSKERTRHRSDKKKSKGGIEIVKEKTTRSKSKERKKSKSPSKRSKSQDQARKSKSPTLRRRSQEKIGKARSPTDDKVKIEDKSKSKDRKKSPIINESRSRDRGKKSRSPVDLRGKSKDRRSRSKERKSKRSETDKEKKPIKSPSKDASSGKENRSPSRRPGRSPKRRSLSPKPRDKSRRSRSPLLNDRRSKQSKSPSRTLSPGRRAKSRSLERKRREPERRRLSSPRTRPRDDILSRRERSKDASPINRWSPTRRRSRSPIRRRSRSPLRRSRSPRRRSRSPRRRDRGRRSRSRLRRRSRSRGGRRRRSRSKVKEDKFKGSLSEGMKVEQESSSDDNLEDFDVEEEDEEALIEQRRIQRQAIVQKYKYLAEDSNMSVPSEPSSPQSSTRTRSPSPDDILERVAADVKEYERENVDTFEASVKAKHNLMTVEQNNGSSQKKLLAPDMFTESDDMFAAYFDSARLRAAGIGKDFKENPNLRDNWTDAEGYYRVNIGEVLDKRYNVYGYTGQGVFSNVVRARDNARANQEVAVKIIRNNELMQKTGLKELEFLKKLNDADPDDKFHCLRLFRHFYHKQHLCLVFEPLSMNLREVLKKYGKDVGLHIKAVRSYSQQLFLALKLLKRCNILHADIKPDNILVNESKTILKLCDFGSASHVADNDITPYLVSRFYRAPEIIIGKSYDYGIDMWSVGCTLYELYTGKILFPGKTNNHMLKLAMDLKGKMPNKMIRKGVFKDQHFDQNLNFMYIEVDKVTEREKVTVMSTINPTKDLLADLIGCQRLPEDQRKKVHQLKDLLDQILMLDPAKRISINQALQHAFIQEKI
Chain of UniProt Q14524 (whole entry, looked up): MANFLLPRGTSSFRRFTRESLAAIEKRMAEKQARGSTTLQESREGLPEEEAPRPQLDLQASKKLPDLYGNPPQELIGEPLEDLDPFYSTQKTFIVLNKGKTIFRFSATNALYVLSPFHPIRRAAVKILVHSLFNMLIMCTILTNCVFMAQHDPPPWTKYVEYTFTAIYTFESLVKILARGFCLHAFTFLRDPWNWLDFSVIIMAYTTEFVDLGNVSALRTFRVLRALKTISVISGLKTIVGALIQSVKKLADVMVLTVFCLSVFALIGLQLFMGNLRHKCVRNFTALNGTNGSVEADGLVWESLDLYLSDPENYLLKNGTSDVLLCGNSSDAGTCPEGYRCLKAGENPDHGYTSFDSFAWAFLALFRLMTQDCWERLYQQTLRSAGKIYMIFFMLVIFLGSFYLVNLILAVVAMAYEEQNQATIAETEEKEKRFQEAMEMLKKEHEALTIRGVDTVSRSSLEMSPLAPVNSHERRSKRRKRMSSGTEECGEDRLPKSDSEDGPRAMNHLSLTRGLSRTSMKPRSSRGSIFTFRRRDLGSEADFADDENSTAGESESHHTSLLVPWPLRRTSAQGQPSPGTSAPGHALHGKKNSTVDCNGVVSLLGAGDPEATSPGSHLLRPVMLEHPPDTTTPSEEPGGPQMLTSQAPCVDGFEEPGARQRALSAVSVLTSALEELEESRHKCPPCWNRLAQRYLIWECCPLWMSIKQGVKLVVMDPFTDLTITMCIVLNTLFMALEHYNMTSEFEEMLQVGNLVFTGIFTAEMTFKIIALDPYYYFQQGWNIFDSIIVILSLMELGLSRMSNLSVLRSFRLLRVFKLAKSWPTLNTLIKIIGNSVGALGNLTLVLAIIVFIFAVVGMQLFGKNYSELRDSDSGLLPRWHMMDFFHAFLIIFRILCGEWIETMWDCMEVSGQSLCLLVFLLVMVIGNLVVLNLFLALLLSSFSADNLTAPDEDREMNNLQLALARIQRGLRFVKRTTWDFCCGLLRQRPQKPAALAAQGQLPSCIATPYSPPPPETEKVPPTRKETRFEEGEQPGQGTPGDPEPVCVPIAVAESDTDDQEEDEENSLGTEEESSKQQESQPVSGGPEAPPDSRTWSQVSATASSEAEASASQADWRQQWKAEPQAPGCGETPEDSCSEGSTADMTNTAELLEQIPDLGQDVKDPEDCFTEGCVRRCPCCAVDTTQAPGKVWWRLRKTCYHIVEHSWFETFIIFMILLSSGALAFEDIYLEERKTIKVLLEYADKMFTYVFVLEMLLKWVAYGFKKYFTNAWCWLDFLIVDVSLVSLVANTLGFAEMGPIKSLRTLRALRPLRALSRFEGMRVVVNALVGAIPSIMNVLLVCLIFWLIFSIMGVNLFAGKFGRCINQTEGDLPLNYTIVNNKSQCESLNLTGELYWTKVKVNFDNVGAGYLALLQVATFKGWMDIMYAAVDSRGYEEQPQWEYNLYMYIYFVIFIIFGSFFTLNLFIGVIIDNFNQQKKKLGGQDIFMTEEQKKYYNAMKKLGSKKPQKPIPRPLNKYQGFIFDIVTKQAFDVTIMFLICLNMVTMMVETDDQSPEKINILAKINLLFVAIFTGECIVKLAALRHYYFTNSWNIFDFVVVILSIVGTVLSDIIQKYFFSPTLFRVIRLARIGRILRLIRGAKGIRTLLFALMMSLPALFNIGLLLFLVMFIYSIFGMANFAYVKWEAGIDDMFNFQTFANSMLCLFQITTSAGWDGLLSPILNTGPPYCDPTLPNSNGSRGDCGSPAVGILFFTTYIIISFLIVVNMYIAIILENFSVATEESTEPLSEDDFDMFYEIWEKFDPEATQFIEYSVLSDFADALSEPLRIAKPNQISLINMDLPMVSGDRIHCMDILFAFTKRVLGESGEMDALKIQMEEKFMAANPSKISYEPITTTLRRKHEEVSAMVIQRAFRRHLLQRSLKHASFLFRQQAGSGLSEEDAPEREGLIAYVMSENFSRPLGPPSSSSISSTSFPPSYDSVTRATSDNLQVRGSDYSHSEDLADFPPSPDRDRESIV
Chain of UniProt Q96S37 (whole entry, looked up): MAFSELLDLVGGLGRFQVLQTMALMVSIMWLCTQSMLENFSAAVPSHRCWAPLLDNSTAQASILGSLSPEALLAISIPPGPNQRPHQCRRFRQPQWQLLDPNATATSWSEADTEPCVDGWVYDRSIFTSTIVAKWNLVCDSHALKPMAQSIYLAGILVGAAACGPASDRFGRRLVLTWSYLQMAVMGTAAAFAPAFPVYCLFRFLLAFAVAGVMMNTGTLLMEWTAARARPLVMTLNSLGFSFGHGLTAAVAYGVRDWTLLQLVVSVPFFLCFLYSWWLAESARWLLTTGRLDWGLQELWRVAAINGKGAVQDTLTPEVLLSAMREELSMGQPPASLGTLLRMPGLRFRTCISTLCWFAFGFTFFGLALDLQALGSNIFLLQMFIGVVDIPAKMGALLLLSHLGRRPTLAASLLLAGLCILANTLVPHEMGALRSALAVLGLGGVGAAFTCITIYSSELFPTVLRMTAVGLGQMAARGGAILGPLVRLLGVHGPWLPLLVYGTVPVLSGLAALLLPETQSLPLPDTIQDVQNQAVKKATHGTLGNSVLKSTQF
Chain of UniProt P47898 (whole entry, looked up): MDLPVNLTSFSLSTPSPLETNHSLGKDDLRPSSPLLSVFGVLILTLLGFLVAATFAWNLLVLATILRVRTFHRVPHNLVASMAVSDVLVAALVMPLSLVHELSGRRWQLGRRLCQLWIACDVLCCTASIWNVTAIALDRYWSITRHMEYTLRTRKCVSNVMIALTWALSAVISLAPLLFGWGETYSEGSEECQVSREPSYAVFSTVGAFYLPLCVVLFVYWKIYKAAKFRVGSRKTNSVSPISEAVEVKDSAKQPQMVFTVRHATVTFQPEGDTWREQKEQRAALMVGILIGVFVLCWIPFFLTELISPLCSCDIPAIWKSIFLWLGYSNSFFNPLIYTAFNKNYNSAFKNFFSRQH

CC[C@@H]1[C@H](F)C(=O)N[C@@H]1COc1nccc2cc(C(N)=O)c(OC)cc12  inhibition (Serine/threonine-protein kinase PRP4 homolog (PRPF4B, Homo sapiens, UniProt Q13523); ATP-site probe binding, inhibitor, ActivX ATP probe profiling; THP-1 cell lysate; 0.2 mM, other probe site): 21.9%
O=C(Nc1cccc2c(=O)cc(-c3nnn[nH]3)oc12)c1ccc(OCCCCc2ccccc2)cc1  inhibition (Volume-regulated anion channel subunit LRRC8C, part LRRC8A IL1 chimera (LRRC8C, Homo sapiens, UniProt Q8TDW0, Y126F); ion current, inhibitor, whole-cell patch clamp; HCT LRRC8-/- cells; 0.3 µM, +100 mV): 43.4% and 32.4% and 47.2% and 41.1%
Cc1cc2c(cc1N1C(=O)c3cccc4c(CCCO)ccc(c34)C1=O)n(C)c(=O)n2C (racemic)  inhibition (Bromodomain-containing protein 2, BD2 (BRD2, Homo sapiens, UniProt P25440); binding, BROMOscan binding; 1000 nM): 74%
NC/C(=C\F)COc1cccc(Cn2c(=S)[nH]c(=O)c3[nH]cnc32)c1  inhibition (rat P2Y receptor; radioligand binding; 10 µM): < 50%
CC(C)c1noc2ncc(C(=O)c3ccccc3O)cc12  inhibition (Sodium channel protein type 5 subunit alpha (SCN5A, Homo sapiens, UniProt Q14524); ion current, whole-cell patch-clamp; 10 µM, hNaV1.5): 8.87%
c1ccc(OC[C@@H]2CN(CCN3CCc4ccccc43)CCO2)cc1  inhibition (DRD4; radioligand binding; concentration not given, with: [3H]N-methylspiperone): 103%
O=C(NO)c1ccc(CN2CCCCc3ccccc32)c(F)c1  inhibition (Alpha-1A adrenergic receptor (ADRA1A, Homo sapiens, UniProt P35348); radioligand binding, PDSP radioligand binding; 10 µM): 34.2%
Clc1cncc(OC[C@H]2CN(CCN3CCc4ccccc43)CCO2)c1  inhibition (5-hydroxytryptamine receptor 5A (HTR5A, Homo sapiens, UniProt P47898); radioligand binding; concentration not given, with: [3H]LSD): -16.6%
Cn1cc(-c2ccc(-c3cncc(Cl)c3N3CCC4(CCNC4=O)CC3)cc2)cn1  fold change in expression (COLO 205; microarray, refers to: IFIT3; concentration not given, 6 h, gene set RIG-G; reference: untreated cells): 2.21
CCc1oc2ccccc2c1C(=O)c1cc(Br)c(O)c(Br)c1  inhibition (Solute carrier family 22 member 12 (SLC22A12, Homo sapiens, UniProt Q96S37); urate uptake, inhibitor; HEK-293T cells; 0.5 µM, 10 min, 37 °C, wild type, with: 200 µM [14C]-urate): 66%
COc1ccccc1N1CCN(CCCCN2CCc3ccccc3C2=O)CC1  inhibition (DRD4; radioligand binding; concentration not given, with: [3H]N-methylspiperone): 100%

Excerpt of the above:
O=C(NO)c1ccc(CN2CCCCc3ccccc32)c(F)c1  inhibition (Alpha-1A adrenergic receptor (ADRA1A, Homo sapiens, UniProt P35348); radioligand binding, PDSP radioligand binding; 10 µM): 34.2%
Clc1cncc(OC[C@H]2CN(CCN3CCc4ccccc43)CCO2)c1  inhibition (5-hydroxytryptamine receptor 5A (HTR5A, Homo sapiens, UniProt P47898); radioligand binding; concentration not given, with: [3H]LSD): -16.6%
